Results from different studies.
Each line is one published result; not all experiments were run side by side. ± gives the spread as reported.
CYP3A4: Cytochrome P450 3A4 (CYP3A4, Homo sapiens, UniProt P08684)

CC[C@H](C)[C@H](NC(=O)[C@H](Cc1ccc(O)cc1)NC(=O)[C@@H](NC(=O)[C@@H](N)CCCN=C(N)N)C(C)C)C(=O)N[C@@H](Cc1c[nH]cn1)C(=O)N1CCC[C@H]1C(=O)N[C@@H](Cc1ccccc1)C(=O)O — proteolytic conversion (chymotrypsin; LC-MS; 20 µM, 60 min, pH 7.4, 25 °C): 83.5 ± 2.4%
CC(C)=CCc1c(O)cc2c(c1O)C(=O)C[C@@H](c1ccc(O)cc1)O2 — inhibition (human CYP2E1; 10 µM, pH 7.4): < 10%
Cc1ccc2c(c1)C(=O)[C@]1(O)CCN(c3ccc4nc(C)ccc4c3)C1=N2.Cl — inhibition (Potassium voltage-gated channel subfamily KQT member 1, with KCNE1 (KCNQ1, Homo sapiens, UniProt P51787); ion channel panel; cells; concentration not given): < 25%
CC[C@H]1[C@@H](O)[C@@H]2[C@H](CC[C@]3(C)[C@@H]([C@H](C)CCNC(=O)NS(=O)(=O)c4ccc(C(C)(C)C)cc4)CC[C@@H]23)[C@@]2(C)CC[C@@H](O)C[C@@H]12 — Vd/F geometric mean (CYP3A4; substrate; human, plasma; 10 mg, alone, study day 1): 416 L
Nc1nnc(-c2cccc(Cl)c2Cl)c(N)n1 — Km (UGT1A, humanized; glucuronidation, Michaelis-Menten kinetics; Tg-UGT1 mice, male, drinking water control group, pooled liver microsomes; 30 min, pH 7.2): 200 ± 10 µM
Cc1cc(Nc2ncnc3ccc(NC4=NC(C)(CO)CO4)cc23)ccc1Oc1ccn2ncnc2c1 (stereo not shown) — Tmax (median) (CYP3A4; human, plasma; oral, 300 mg tucatinib single dose, day 1, tucatinib alone): 2.49 h
CC(C)=CCc1c(O)cc(O)c2c1O[C@H](c1ccc(O)cc1)CC2=O — inhibition (human CYP2E1; 10 µM, pH 7.4): < 10%
Cc1oc2ccccc2c1Cc1cc(I)c(OCC(=O)O)c(I)c1 — activation slope factor (KCNH2 (Homo sapiens, UniProt Q12809); potassium current, whole-cell patch clamp; HEK293 expressing hERG1; 10 µM, 10 mM K+): 9.5 mV
NCc1cc2c(cc1F)C(=O)N(C1CCC(=O)NC1=O)C2 (stereo not shown) — concentration (MAOA (Homo sapiens, UniProt P21397); substrate, LC-MS/MS; recombinant enzyme; 10 µM, 20 h, pH 7.4): 3.5 µM
C=CC(=O)N1C[C@H](Nc2ncnc3[nH]ccc23)CC[C@@H]1C — AUC(0-inf) (CYP3A; substrate; human, plasma; oral, single dose, together with: itraconazole multiple doses): 308 ng·h/mL

For quick reference, copied from above:
Cc1ccc2c(c1)C(=O)[C@]1(O)CCN(c3ccc4nc(C)ccc4c3)C1=N2.Cl — inhibition (Potassium voltage-gated channel subfamily KQT member 1, with KCNE1 (KCNQ1, Homo sapiens, UniProt P51787); ion channel panel; cells; concentration not given): < 25%
